{"data": "Measured values gathered from unrelated publications", "note": "Compare with care: the assays were run in different laboratories. “And” joins repeats or separate records; there may be more than shown. Numbers after ± are the reported error."}
{"SMILES": "CCCCCCCCCCCCCCCC(=O)N[C@@H](CCCCN)C(=O)N[C@@H](CCCCN)C(=O)N[C@@H](CO)C(=O)N[C@@H](CCCNC(=N)N)C(=O)N[C@@H](C)C(=O)N[C@@H](CC(C)C)C(=O)N[C@@H](Cc1ccccc1)C(N)=O", "system": "CAD/ACS patients undergoing catheterization", "scale": "baseline: placebo", "endpoint": "laboratory, vital signs, ECG", "value": "no effect"}
{"SMILES": "O=C([O-])CN1CCN(CC(=O)[O-])CCN(CC(=O)NCCc2ccc3c(c2)C2C=CCC2C(c2cc4c(cc2Br)OCO4)N3)CCN(CC(=O)[O-])CC1.[111In+3] (stereo not shown)", "system": "mouse, Hec50 endometrial tumour, heart", "setting": "2 h post injection", "endpoint": "tissue uptake", "value": "0.25 ± 0.04 %ID/g"}
{"SMILES": "CCCC[C@@H]1NC(=O)[C@@H](NC(=O)[C@H](CCC(=O)O)NC(=O)CNC(=O)CN2CCN(CC(=O)O)CCN(CC(=O)O)CCN(CC(=O)O)CC2)CCCCNC(=O)C[C@@H](C(N)=O)NC(=O)[C@H](C(C)C)NC(=O)[C@@H]2CCCN2C(=O)[C@H](CCCNC(=N)N)NC(=O)CNC(=O)[C@H](Cc2c[nH]c3ccccc23)NC(=O)[C@H](CCCNC(=N)N)NC(=O)[C@@H](Cc2ccccc2)NC(=O)[C@H](Cc2c[nH]cn2)NC(=O)[C@H](CCC(=O)O)NC1=O [gallium-67 labelled]", "system": "C57 mice with B16/F1 melanoma, blood", "setting": "intravenous, 4 h", "endpoint": "tissue uptake", "value": "0.17 ± 0.13 %ID/g"}
{"SMILES": "COc1cc(CNC(=O)CCCC/C=C/C(C)C)ccc1N", "assay": "metabolic stability", "system": "C57BL/6 mouse, liver microsomes", "setting": "2 µM, 2 h", "endpoint": "compound remaining", "value": "0.1%"}
{"SMILES": "COc1cc(NC(C)=O)c2c(c1O)-c1c(OC)c(OC)cc3c1C(C2)N(C)CC3 (stereo not shown)", "system": "rat lung homogenate", "setting": "5 µg/mL, time not given, three freeze-thaw cycles", "endpoint": "remaining compound", "value": "99.9 ± 1.6%"}
{"SMILES": "CC(C)(Sc1ccncc1-c1ccc(C#N)c2ccccc12)C(=O)OC1OC(C(=O)O)C(O)C(O)C1O (stereo not shown)", "system": "plasma", "setting": "oral, 15 mg, normal renal function, fasted", "endpoint": "terminal half-life", "value": "11.9 h"}
{"SMILES": "Cn1c(=O)oc2ccc(-c3ccc(CC(C#N)NC(=O)C4CNCCCO4)c(F)c3)cc21 (stereo not shown)", "assay": "measured: abdominal pain", "system": "human volunteers", "setting": "oral, dose not given", "endpoint": "treatment-emergent adverse event incidence", "value": "3.7%"}
{"SMILES": "Cc1ccccc1/N=N/c1ccc(/N=N/c2c(O)ccc3ccccc23)c(C)c1", "system": "rat whole blood QC samples", "setting": "16.0 µg/L, 2 h, room temperature, short-term stability", "endpoint": "measured concentration", "value": "15.9 µg/L"}
{"SMILES": "CC(=O)N[C@H](CC(=O)O)C(=O)N[C@H](Cc1c[nH]c2ccccc12)C(=O)N[C@H](Cc1ccccc1)C(=O)N[C@H](CCCCN)C(=O)N[C@H](C)C(=O)N[C@H](Cc1ccccc1)C(=O)N[C@H](Cc1ccc(O)cc1)C(=O)N[C@H](CC(=O)O)C(=O)N[C@H](CCCCN)C(=O)N[C@@H](C(=O)N[C@H](C)C(=O)N[C@H](CCC(=O)O)C(=O)N[C@H](CCCCN)C(=O)N[C@H](Cc1ccccc1)C(=O)N[C@H](CCCCN)C(=O)N[C@H](CCC(=O)O)C(=O)N[C@H](C)C(=O)N[C@H](Cc1ccccc1)C(N)=O)C(C)C", "system": "statin-treated high-risk CHD men, plasma", "setting": "oral, 500 mg daily, day 13, 0 to 8 h, mean, all subjects", "endpoint": "AUC(0-t)", "value": "104 ng·h/mL"}
{"SMILES": "OCc1cn(Cc2ccc(-c3noc(-c4ccc(OCC[18F])c(C(F)(F)F)c4)n3)cc2)nn1", "system": "rat, pancreas", "setting": "intravenous, 30 min", "endpoint": "tracer uptake", "value": "1.89 %ID/g"}
{"SMILES": "C#CCOc1ccc(/C=C2\\SC(=O)N(CC(=O)NCc3ccccc3)C2=O)cc1", "assay": "inverse Kirkwood-Buff integrals", "system": "binary solvent mixture", "setting": "298.15 K, mole fraction x1 0.45", "endpoint": "Kirkwood-Buff integral G1,3", "value": "-262 cm³/mol"}
{"SMILES": "O=C(NCCCN(CCCCN(CCCNC(=O)c1cccc(=O)n1[O-])C(=O)c1cccc(=O)n1[O-])C(=O)c1cccc(=O)n1[O-])c1cccc(=O)n1[O-].[89Zr+4]", "assay": "radio-TLC", "system": "PBS", "setting": "1 d, pH 7.4, 37 °C, added: Zn^2+ 10-fold excess", "endpoint": "intact complex", "value": "98.7 ± 1.9%"}
{"SMILES": "NCC(=O)NCC(=O)NCC(=O)NCC(=O)NCC(=O)NCC(=O)NCCCC[C@H](NC(=O)[C@@H]1CCCN1C(=O)[C@@H]1CSSCCC(=O)N[C@@H](Cc2ccc(O)cc2)C(=O)N[C@@H](Cc2ccccc2)C(=O)N[C@@H](CCCC(N)=O)C(=O)N[C@@H](CC(N)=O)C(=O)N1)C(=O)NCC(N)=O", "system": "male Sprague Dawley rats", "setting": "sc, dose not given, single dose", "endpoint": "NOEL", "value": "2.3 µg/kg"}
{"SMILES": "CC(C)(O)c1ncc([S@](N)(=O)=NC(=O)Nc2c3c(cc4c2CCC4)CCC3)s1", "system": "healthy human, fasted", "setting": "oral, 300 mg single dose, capsule formulation", "endpoint": "AUC(0-last)/dose", "value": "210 ng·h/mL/mg"}
{"SMILES": "CC(C)[C@H](NC(=O)CNC(=O)[C@H](CCC(N)=O)NC(=O)[C@H](C)N)C(=O)O", "assay": "LC-MS/MS", "system": "human, male, plasma", "setting": "intravenous, 10 mg/kg three times daily, day 1, first dose, 10 min infusion, geometric mean", "endpoint": "half-life", "value": "5.4 min"}
{"SMILES": "Nc1nccc(-c2cn(C3CC3)c3ccccc23)n1", "assay": "radiolabelled metabolite profiling", "system": "human male, plasma", "setting": "oral, 110 mg, 2 h", "endpoint": "plasma concentration", "value": "4.44 ng/g"}
{"SMILES": "C=C(c1ncc(C(=O)O)cn1)c1cc2c(cc1C)C(C)(C)CCC2(C)C", "system": "Sprague-Dawley rat, male, plasma", "setting": "oral, 100 mg/kg, 2 h, sesame oil vehicle", "endpoint": "HDL level", "value": "65 ± 13.1 mg/dL"}
{"SMILES": "N=C(N)NCCC[C@@H]1NC(=O)[C@H](Cc2c[nH]c3ccccc23)NC(=O)[C@@H](CC2CCCCC2)NC(=O)[C@@H]2CCCN2C(=O)[C@@H](NC(=O)CCc2ccccc2)CCCNC1=O", "system": "C57BL/6J mice, spinal cord", "setting": "subcutaneous, 1 mg/kg, two-compartment model", "endpoint": "apparent central volume (V1/F)", "value": "0.05 µg/(ng/g)"}
{"SMILES": "CC[C@H](C)[C@H](NC(=O)[C@@H](NC(=O)[C@H](Cc1ccccc1)NC(=O)[C@@H](N)CC(=O)O)C(C)C)C(=O)N[C@@H](Cc1ccccc1)C(=O)N[C@@H](CC(C)C)C(=O)N[C@@H](CC(=O)O)C(=O)N[C@H](C(=O)N[C@@H](CCCCN)C(=O)N[C@@H](Cc1c[nH]cn1)C(=O)N[C@@H](Cc1ccccc1)C(=O)N[C@@H](CO)C(=O)N1CCC[C@H]1C(=O)N[C@@H](CCC(=O)O)C(=O)N[C@@H](CC(=O)O)C(=O)N[C@@H](CC(C)C)C(=O)N[C@H](C(=O)N[C@H](C(=O)N[C@@H](CCCCN)C(=O)O)C(C)C)[C@@H](C)O)C(C)C", "assay": "circular dichroism", "system": "5 mM phosphate", "setting": "455 µM, pH 7", "endpoint": "CD minimum wavelength", "value": "~218 nm"}
{"SMILES": "Cc1ccc(-c2ccc(-c3cc4sccc4o3)cn2)nc1", "system": "CHCl3", "setting": "added: quinine bisulfate reference", "endpoint": "fluorescence quantum yield", "value": 0.44}
{"SMILES": "CC1C(c2c(F)ccc(F)c2F)CC(N[14C](=O)c2cnc3c(c2)CC2(C3)C(=O)Nc3ncccc32)C(=O)N1CC(F)(F)F (stereo not shown)", "assay": "measured: total radioactivity", "system": "human, urine", "setting": "through last collection", "scale": "baseline: dose", "endpoint": "urinary excretion", "value": "~8% and 7.86% and 8%"}
{"SMILES": "CC(C)C[C@@H](NC(=O)[C@H](NC(=O)[C@H]1CCCN1)[C@H](C)O)C(=O)N[C@H](Cc1c[nH]cn1)C(=O)N[C@@H](C(=O)N[C@H](Cc1c[nH]cn1)C(=O)N[C@H](CC(N)=O)C(=O)N[C@H](CCCNC(=N)N)C(=O)N[C@H](CCCNC(=N)N)C(=O)N[C@H](CCCNC(=N)N)C(=O)N[C@H](CCCNC(=N)N)C(=O)N[C@H](CCCNC(=N)N)C(N)=O)[C@H](C)O", "system": "Beagle dog, plasma", "setting": "oral, 50 mg/kg single dose", "endpoint": "fraction of AUC from gamma half-life", "value": "25%"}
